{"data": "Assay results gathered from unrelated publications", "note": "Parts stem from different laboratories: compare values within a part only. Changes are numbered by the printed parent chain.", "UniProt Q5S007, sequence (whole entry, looked up)": "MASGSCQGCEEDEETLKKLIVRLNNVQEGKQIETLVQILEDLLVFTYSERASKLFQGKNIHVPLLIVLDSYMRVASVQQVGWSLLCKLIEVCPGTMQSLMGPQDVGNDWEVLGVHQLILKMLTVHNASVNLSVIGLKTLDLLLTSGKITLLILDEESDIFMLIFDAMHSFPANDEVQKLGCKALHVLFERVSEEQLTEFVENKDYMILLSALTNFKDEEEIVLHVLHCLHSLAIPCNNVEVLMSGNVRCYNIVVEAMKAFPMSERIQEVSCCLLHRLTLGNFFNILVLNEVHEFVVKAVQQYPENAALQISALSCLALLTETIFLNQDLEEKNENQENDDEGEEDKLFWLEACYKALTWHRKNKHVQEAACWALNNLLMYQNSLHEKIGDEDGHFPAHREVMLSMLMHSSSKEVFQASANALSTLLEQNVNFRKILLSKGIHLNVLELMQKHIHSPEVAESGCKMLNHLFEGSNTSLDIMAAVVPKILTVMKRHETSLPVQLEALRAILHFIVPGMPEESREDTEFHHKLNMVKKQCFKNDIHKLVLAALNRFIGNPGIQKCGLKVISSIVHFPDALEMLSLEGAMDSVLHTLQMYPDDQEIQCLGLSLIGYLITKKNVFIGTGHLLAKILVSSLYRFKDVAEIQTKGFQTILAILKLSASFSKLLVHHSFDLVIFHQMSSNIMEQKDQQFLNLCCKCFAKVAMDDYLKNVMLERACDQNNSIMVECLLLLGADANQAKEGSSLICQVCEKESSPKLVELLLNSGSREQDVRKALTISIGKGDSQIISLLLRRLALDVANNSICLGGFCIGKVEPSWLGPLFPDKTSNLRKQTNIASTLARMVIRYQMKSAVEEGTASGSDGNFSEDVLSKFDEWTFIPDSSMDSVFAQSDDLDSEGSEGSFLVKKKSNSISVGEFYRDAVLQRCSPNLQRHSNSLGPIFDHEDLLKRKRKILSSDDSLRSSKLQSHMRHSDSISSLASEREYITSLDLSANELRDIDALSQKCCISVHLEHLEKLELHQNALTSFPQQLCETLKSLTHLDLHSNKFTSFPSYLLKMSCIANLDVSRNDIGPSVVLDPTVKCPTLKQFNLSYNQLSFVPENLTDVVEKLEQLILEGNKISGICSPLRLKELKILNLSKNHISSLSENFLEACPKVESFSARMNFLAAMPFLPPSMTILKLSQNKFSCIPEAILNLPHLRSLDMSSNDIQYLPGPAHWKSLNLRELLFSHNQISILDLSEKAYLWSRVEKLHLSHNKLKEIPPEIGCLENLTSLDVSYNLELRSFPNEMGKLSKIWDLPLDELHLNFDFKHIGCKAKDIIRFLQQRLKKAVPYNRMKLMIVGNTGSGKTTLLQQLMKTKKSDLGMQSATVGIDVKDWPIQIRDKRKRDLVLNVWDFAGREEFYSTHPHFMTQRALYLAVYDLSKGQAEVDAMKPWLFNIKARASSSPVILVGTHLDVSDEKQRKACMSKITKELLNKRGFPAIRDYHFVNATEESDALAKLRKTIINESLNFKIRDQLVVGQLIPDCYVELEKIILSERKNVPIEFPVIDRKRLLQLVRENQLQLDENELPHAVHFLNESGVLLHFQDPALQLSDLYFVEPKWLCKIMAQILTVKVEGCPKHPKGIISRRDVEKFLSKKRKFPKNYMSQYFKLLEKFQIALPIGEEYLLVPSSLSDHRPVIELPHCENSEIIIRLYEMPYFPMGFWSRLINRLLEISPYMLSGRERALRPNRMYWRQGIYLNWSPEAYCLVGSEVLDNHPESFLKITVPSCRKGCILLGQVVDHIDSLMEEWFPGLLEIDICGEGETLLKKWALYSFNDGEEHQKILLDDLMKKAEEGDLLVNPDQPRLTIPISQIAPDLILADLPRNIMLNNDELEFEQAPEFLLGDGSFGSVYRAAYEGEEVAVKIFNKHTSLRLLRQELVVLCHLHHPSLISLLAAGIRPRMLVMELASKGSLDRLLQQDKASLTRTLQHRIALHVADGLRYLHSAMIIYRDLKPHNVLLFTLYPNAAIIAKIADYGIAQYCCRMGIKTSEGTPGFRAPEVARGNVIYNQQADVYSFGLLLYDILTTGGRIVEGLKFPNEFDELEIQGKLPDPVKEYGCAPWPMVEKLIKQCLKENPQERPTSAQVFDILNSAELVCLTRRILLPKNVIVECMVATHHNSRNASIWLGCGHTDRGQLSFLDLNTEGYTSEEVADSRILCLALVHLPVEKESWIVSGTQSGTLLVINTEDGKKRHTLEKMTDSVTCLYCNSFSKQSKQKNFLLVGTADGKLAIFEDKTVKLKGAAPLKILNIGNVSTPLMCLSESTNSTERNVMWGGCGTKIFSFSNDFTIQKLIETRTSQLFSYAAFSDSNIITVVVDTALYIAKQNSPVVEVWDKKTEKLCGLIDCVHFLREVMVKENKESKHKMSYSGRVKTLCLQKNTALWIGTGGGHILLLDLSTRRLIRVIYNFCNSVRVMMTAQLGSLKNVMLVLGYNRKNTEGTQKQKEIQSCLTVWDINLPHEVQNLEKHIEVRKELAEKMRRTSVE"}
{"data": "Block 1", "target": "vanadate, free oxyanion", "method": "microfluidic competitive inhibition", "medium": "in vitro, cell-free expressed", "concentration": "not given", "notes": "derived from inhibition constants, unchanged parent 676 nM", "reading": "lower = stronger binding", "parent": "PafA, mature enzyme, eGFP fusion (Elizabethkingia meningoseptica, UniProt Q9KJX5); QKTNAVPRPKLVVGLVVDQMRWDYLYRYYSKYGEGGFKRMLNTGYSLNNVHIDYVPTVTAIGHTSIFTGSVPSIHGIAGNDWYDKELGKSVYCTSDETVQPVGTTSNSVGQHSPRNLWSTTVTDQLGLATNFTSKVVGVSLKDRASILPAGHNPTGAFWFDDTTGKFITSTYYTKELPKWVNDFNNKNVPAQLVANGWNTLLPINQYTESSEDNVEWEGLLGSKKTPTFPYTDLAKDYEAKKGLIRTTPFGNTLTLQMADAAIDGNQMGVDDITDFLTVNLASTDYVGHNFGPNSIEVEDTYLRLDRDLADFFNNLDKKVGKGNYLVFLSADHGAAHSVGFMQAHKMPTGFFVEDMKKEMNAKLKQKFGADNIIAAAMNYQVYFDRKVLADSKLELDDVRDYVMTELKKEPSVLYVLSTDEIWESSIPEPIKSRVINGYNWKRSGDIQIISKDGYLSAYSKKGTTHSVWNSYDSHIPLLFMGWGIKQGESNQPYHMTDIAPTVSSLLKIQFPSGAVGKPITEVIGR"}
{"Change": "S211V", "oxyanion analog dissociation constant": "698 nM"}
{"Change": "K358V", "oxyanion analog dissociation constant": "868 nM"}
{"Change": "V435G", "oxyanion analog dissociation constant": "1.04 µM"}
{"Change": "V388G", "oxyanion analog dissociation constant": "694 nM"}
{"Change": "P293G", "oxyanion analog dissociation constant": "711 nM"}
{"Change": "P72V", "oxyanion analog dissociation constant": "1.36 µM"}
{"Change": "V435A", "oxyanion analog dissociation constant": "837 nM"}
{"Change": "D332G", "oxyanion analog dissociation constant": "1.62 µM"}
{"data": "Block 2", "target": "UDP-N-acetylglucosamine--peptide N-acetylglucosaminyltransferase 110 kDa subunit (OGT, Homo sapiens, UniProt O15294)", "observed": "binding", "method": "phage display NGS", "form": "peptide", "baseline": "input library", "UniProt O15294, sequence (whole entry, looked up)": "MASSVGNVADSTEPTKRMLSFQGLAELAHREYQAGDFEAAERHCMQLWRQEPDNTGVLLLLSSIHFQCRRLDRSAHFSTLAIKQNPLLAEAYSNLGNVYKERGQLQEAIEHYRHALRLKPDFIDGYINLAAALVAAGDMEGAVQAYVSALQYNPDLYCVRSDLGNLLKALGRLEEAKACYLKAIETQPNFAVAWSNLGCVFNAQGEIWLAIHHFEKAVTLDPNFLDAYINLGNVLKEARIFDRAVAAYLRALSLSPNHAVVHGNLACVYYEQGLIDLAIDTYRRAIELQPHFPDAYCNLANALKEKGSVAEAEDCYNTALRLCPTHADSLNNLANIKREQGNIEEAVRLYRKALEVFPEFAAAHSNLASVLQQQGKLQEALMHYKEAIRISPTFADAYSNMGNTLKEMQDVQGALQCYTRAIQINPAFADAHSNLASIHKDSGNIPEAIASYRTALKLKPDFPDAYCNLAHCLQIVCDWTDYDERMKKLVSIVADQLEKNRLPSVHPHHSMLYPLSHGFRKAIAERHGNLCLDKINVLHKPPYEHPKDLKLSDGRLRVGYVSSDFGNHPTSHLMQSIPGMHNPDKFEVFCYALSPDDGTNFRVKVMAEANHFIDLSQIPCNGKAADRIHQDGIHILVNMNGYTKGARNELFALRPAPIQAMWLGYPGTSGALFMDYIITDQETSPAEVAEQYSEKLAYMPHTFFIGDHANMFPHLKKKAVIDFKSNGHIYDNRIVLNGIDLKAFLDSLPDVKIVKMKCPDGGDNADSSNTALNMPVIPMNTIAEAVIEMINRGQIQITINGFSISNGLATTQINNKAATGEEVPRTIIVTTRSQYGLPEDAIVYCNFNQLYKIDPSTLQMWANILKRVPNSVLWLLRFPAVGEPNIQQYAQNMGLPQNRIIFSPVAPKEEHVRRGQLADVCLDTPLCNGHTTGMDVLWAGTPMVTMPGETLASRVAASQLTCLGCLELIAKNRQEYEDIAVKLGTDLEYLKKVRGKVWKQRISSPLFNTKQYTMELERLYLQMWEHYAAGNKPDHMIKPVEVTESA"}
{"Sequence": "RMTPQFRPFYQIIMR", "minimum log2 enrichment ratio": 2.48}
{"Sequence": "NAFFLPAYQIPIVQA", "minimum log2 enrichment ratio": 4.46}
{"Sequence": "QHITHYHFTHQFDTH", "minimum log2 enrichment ratio": 1.83}
{"Sequence": "HRHGWQIHLNDGVW", "minimum log2 enrichment ratio": 1.61}
{"Sequence": "HVQNGHTHKIHAHEV", "minimum log2 enrichment ratio": 2.08}
{"Sequence": "FSPYRHFQHSHSSTD", "minimum log2 enrichment ratio": 1.34}
{"Sequence": "NPHAHHIVSHTGFVH", "minimum log2 enrichment ratio": 2.11}
{"Sequence": "GLWPHHDHTHPSTEA", "minimum log2 enrichment ratio": 3.64}
{"data": "Block 3", "target": "CCNB2, cyclin fold, Cln2 fusion (human)", "method": "yeast growth competition, sequencing", "medium": "yeast", "notes": "strong parent motif", "baseline": "not given", "reading": "higher = stronger binding", "parent": "viral docking peptide; YKVKRRLVFGADD; partner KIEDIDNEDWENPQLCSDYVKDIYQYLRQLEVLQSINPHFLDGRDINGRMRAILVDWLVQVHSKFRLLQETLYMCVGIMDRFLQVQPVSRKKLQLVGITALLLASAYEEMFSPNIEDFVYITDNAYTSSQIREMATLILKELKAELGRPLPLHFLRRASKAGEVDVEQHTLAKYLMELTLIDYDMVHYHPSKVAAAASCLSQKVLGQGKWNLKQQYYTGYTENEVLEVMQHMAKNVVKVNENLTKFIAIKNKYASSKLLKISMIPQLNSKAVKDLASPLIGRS"}
{"Change": "R6Y", "normalised enrichment score": 1.08}
{"Change": "L7D", "normalised enrichment score": 0.29}
{"Change": "R5S", "normalised enrichment score": 0.375}
{"Change": "R5E", "normalised enrichment score": 0.473}
{"Change": "A11D", "normalised enrichment score": 3.04}
{"Change": "V8F", "normalised enrichment score": 1.79}
{"Change": "A11W", "normalised enrichment score": 1.72}
{"Change": "F9S", "normalised enrichment score": 0.48}
{"data": "Single results of other studies"}
{"SMILES": "N/C(=N\\[N+](=O)[O-])N/N=C\\c1ccc(-c2cccc([N+](=O)[O-])c2)o1", "target": "Leucine-rich repeat serine/threonine-protein kinase 2 (LRRK2, Homo sapiens, UniProt Q5S007)", "observed": "enzyme activity", "mode": "inhibitor", "concentration": "0.5 µM", "baseline": "control", "endpoint": "remaining activity", "value": "91%"}
{"note": "Excerpt of the above (block 1):"}
{"Change": "V435G", "oxyanion analog dissociation constant": "1.04 µM"}
{"Change": "V388G", "oxyanion analog dissociation constant": "694 nM"}
{"Change": "P293G", "oxyanion analog dissociation constant": "711 nM"}
